Earlier results as cited in several papers.
Numbered parts are unrelated; values within a part may stem from several laboratories.

Block 1
Organism: Toxoplasma gondii
Read-out: parasite growth
Concentration: concentration not given
Notes: drug repurposing screen
Quantity: activity class
COc1cc([C@@H]2c3cc4c(cc3[C@@H](O[C@@H]3O[C@@H]5CO[C@@H](C)O[C@H]5[C@H](O)[C@H]3O)[C@H]3COC(=O)[C@H]23)OCO4)cc(OC)c1O: inactive
CC(=O)N1CCN(c2ccc(OCC3COC(Cn4ccnc4)(c4ccc(Cl)cc4Cl)O3)cc2)CC1 (stereo not shown): inactive
O=C(c1ccc(F)cc1)C1CCN(CCn2c(=S)[nH]c3ccccc3c2=O)CC1: inactive
COc1ccc2c(c1)c(CC(=O)O)c(C)n2C(=O)c1ccc(Cl)cc1: inactive

Further values, each from its own experiment
CC1=C(C#N)C(c2ccc3[nH]nc(C)c3c2)C(C#N)=C(C)N1  IC50 (MET; biochemical): < 1 nM
C=CC(=O)Nc1cc(Nc2ncc(C(=O)OC(C)C)c(-c3cn(C)c4ccccc34)n2)c(OC)cc1N(C)CCN(C)C  grade 3 adverse events (human, NSCLC patients; dose not given, all doses): 42%
COc1ccc2cc(OCC3(C(=O)O)CN(C(=O)c4ccc(F)cc4)C3)ccc2c1  IC50 (LTB4R): 9700 nM
CCCCCCCCNC(C)C(O)c1ccc(SC(C)C)cc1 (stereo not shown)  fold change (MCF7; microarray, Connectivity Map, item: LPIN1 mRNA; concentration not given, 6 h; relative to: DMSO): 2.35
C[C@H](c1ccnc(Nc2nc3ccc(-c4cc(N(C)C)ncn4)cc3[nH]2)c1)N1CCN(C(=O)CC(F)(F)F)CC1  IC50 (IKBKE; low ATP): 2 nM
CN1CCN(c2cnc3c(C4CCN(C(=O)c5ccc(OC(F)(F)F)cc5N)CC4)ncnc3c2)CC1  IC50 (MAPK7; cellular activity): 115 nM

Repeated from above (block 1):
CC(=O)N1CCN(c2ccc(OCC3COC(Cn4ccnc4)(c4ccc(Cl)cc4Cl)O3)cc2)CC1 (stereo not shown): inactive
